Experimental data of several laboratories.
Each numbered part is a random draw from the data of one study; scales do not carry over between parts.

Block 1 — technique: RNA Bind-n-Seq; molecule type: RNA; sample: in vitro; tested at: 365 nM; reference: no-protein control; direction: higher = stronger binding
Target: RNA binding protein fox-1 homolog 2, RRM domain, GST-SBP tag (RBFOX2, Homo sapiens, UniProt O43251-10, residues 100-194)
Notes: natural RNA segment, single round, ends assumed
All sequences stand within: GGGAGUUCUACAGUCCGACGAUC … UGGAAUUCUCGGGUGCCAA
Construct (chain): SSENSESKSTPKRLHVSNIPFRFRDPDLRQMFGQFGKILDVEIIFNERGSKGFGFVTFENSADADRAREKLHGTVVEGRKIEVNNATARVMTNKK
| Oligonucleotide | RBNS enrichment (R) |
| --- | --- |
| UCUAUUGUAAAAUUUCAUUUUCACUAAGUAACACCCAGUAGAUAAUUCCUAUGGAGCAGUGGUGUUCCAAAUUCUCCAUUACCUCUAUGCCUAAUAUUCAUCAGCCUUCA | 0.433 |
| AUUAUUCCUGCUCGCCAGUGAGAGGCGUUUAAGUCGCGCUGUGCAUCGUACCUUCAGUUUAGGCUGUUUUCAUGACCUCACAUCUGUGUAGCACAAAGGGUGUUAUCUUC | 0.626 |
| UUGGGCUGAAAUAAGUAACAGUCUGAGGCAGCCUGCGCCACAGUAAAGUGUGUUGGUUUGCUUGGAAGUCUGGAGUCCUGUGAGUUCUUUUUUUUUUUUUUUCCCCAUCC | 0.703 |
| GCUGGGUGUGUGUUUAGAGCUCUACGAAUUGUCAAUAACACAUGCUUCUCUGUCCCAGGGGUCCUAGAGAGGGCAAAUUACUAAGCAUCUCUGUAGGAUGGAGAUGAUAG | 0.848 |
| AUUACAGUUUAAUUAAUUAUUCUUAGUGCUUAAGGCUUCAUAAAGUAAUUUUUCCAACCUUUUUUUUAAAAAUGUGCAUCUUUUAUUAUCUUUUAUGGUUAAACUUGGAA | 1.1 |
| AAACACAAAUCAAGUUCCAAAUUUCAUUGGACUCCACUUGAAGACCAUGAGAAAAUAGCUUGGUCUGACCACAAUCUCCUGCUCAUGACUCUCUGAGGCUUCUUGUUAAA | 0.182 |
| CUGUAAGACCCCAGCUUUUCCUGGAAGAUGGGACUCUGGGGUGUGUGGUGCUCACCAGAGUCAGGCCACCCACUGGGCUCGGCAGGAGAUAGGGAGCCCCAUCACCUGAC | 0.413 |
| CCUUUAGAGGGUGUGCUUUGGACGCUGACCUCUUAGGGCUUUAGGACAGAGGGACGAUGUUGAGUCUAGAAGGGCACAAUAUGCCAGAGUUUUAUGGCCAGUGAUCCUCA | 0.312 |
| CAGGAUGAGGAAGGUGCAUCCUAACCCUAACCGCCCGGCUCACCUGCGCUUGAAGAUGUAUGAGUUUGCAGGGCGGCUGGUGGGCAAGUGUUUGUAUGAAUCCUCUCUAG | 0.526 |
| UCUUGUAAAAUUUAAAUAGCUACCAUUGGCAAUCUGCUUUUUUUCUAAAAUCUGAUUUGCAGCCAGGAAAGAAUUUUCUCACCCAAGGAACAUUUGAUCUAGCAGCAGGG | 0.493 |
| UGUCCGUCUUUCUGCUGCACACCUGGACCAAGCUUGCAGGCUGCCAGACUCACUCAACCUCCAGAGAGAGGAGCCAAGCCUAUGGGAAGUGGGGAGGGACUGCCUGAGGC | 0.472 |
| UGAAGUUGCUUAUCAGCUUAAGGAGAUUUUGGGCUGAGACGAUGGGGUUUUCUAGAUAUACAAUCAUGUCGUCUGCAAACGGACAAUUUGACUUCCUCUUUUCCUAAUUG | 0.293 |

Block 2 — technique: RNA Bind-n-Seq; molecule type: RNA; sample: in vitro; tested at: 100 nM; reference: input RNA pool; direction: higher = stronger binding
Target: RING finger protein unkempt homolog, zinc fingers 1-6, SBP tag (UNK, Homo sapiens, UniProt Q9C0B0, residues 30-357)
UniProt Q9C0B0, sequence (30-357, looked up): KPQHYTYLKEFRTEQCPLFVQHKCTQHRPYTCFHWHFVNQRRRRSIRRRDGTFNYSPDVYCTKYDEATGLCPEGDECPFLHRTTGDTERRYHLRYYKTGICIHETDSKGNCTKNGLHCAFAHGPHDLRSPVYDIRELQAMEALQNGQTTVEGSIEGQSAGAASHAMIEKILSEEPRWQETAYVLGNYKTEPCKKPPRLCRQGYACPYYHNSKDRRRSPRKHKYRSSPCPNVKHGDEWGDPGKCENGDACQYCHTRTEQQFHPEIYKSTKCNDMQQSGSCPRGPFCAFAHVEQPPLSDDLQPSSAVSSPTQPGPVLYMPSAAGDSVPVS
Notes: RNA with constant flanks, vertebrate orthologous sites, ends assumed
All sequences stand within: GGGAGUUCUACAGUCCGACGAUC … CAACAGAGGAUUGAGCAUCA
| Oligonucleotide | bound/input enrichment |
| --- | --- |
| GAGCUAAAGGAGUUAGCAUCUUUAUUUUUGUAUCAAAGAUAAAGGUUAUUUUGAAAUUAUUAGGGUUUUUACACAGCUCUGGAAUCUGUUGCUUUUGUAAGCCAAUUGUUUGAUCUUAGG | 1.62 ratio |
| CACAAUCUCUACUUAAGUAGGUAUUUACAUACCACAUUAAGCCUUCAUUUUACAUAUUUACAGCUUUUCCAUUUUCCAGAUGAGGUAAAAGAAUUUCAUGCUUAAAGUUAAUUGUGGUCU | 0.636 ratio |
| CCUCUGAACCCCAUUUCUUCUGUUUCAUAGUGUAGAAGUAUUCUUUUUCAAUUGUAUUAUUAGUGGACUUGUUUUAAUUUUAGGGAAACUUUCAGUACAGAUACUGUGAGCUUACAUGGA | 1.77 ratio |
| ACAGGAGCAGUACAGGCUGUUUGAUCUUUGGAGAAAUGAGCUUUGCUUUUUAUAUUUAAAUAGGAUACUUUUAUAUGAUGGGUGCUUUGAGUGUGAAUGCAGCAGUCUGUCCAUUUCAGA | 1.19 ratio |
| GGUUAAUGUGUUAUUUAUUGAGUAUAGUUUGUGCUAAGCAUUGUGUUAGAUUUAAAAAAUUAGUGGAUUGACUCCACUUUGUUGUGUUGUUUUCAUUGUUGAAAAUAAAUAUAACUUUGU | 0.961 ratio |
| AUUCAAACCUGUGGUACCAUGGCCUCAUGUUGAAGGAGUAGAAGUGGACUUAGAGUCUAUUAGAAGAAAAAACAAGGCUAAGAAUGAACAAGAGCAUCAUGCUGGAGGAGACUCCCAGAA | 0.478 ratio |
| AUUACAGCAAAAGAGCCAAGCAGUAGCAUUGUUGUUGGGUUUUUUUUAAUGUAAAAAAAAUAGGUCCAGACUUUGUUUCCGUAUUCAAUCUUAAAAAUAAAAAAAUACCUCAGUACUGUU | 0.348 ratio |
| AGAGGAUUAGGUUCCAUCCUUUACGUGUUUAAAAAAAAGCAUAAAAACAUUUUAAAAACAUAGAAAAAUUCAGCAAACCAUUUUUAAAGUAGAAGAGGGUUUUAGGUAGAAAAACGUAUU | 0.902 ratio |
| UUGUUUUGUUUUGUUUUUAAUUUAAUUAUUCCUUUUGGGGGUAAAGUUUGCUCUACCAAAUAGUGAUUGUAACAAAUUGAUCUGUUUUGGAUGUUGCUAUAGUGACAUGCAGUUAUAUAU | 0.529 ratio |
| UAUUGUAUGUAGAGAAAAAUUUUCAUUGACUCCCAUUGUGGAAUUCCCUAGCAAUUUAUUUAGACUUAAUUUUUUAAAUUCAAGCUUACUGUAUUAGUCAUUUUUAGCCCAUAAUUAAAA | 10.9 ratio |
| UAAAGGUUUUUUUUUUUUAAUUUAAUUUUUCCUUUUGGGGGUAAAGUUUGCUCUACCAAAUAGUGAUCGUAACAAAUUGAUCUGUUUUGGAUGUUGCUAUAGUGACAUGCAGUUAUAUAU | 0.618 ratio |

Block 3 — technique: RNAcompete; molecule type: RNA; sample: in vitro; tested at: 20 nM; notes: 7-mer, probes averaged, single round; reference: mean of 7-mers; direction: higher = stronger binding
Target: PABPC1L2, full length, GST fusion (mouse, UniProt A0ABA7IW68)
Residues (chain): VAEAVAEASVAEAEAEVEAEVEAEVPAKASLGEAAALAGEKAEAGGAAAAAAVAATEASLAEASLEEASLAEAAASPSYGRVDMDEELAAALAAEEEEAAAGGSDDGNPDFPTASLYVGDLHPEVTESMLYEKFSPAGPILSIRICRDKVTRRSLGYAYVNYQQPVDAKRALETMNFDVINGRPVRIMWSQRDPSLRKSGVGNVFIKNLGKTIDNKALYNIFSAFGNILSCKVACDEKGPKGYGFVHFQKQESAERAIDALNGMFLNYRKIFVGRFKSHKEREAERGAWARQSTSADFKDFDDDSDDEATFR
| Oligonucleotide | 7-mer Z-score |
| --- | --- |
| UCGUUGG | -0.291 |
| CGAAAGC | -0.186 |
| UAAUGUU | -0.264 |
| AGAAACA | 3.32 |
| GGCGACG | 0.242 |
| UUUUAAA | 0.238 |
| UGCACUU | -0.148 |
| GUUAUAG | -0.191 |
| GUGGGUG | 0.0243 |
| CUCAACU | -0.244 |
| AGCAUCG | -0.113 |
| CGAGCCU | -0.394 |
| UGUCAUG | -0.26 |
| AGGAUUG | -0.0446 |
| AGAAUUA | -0.132 |
| GGUAACG | -0.126 |
| CCUCUUU | -0.251 |
| GUGGCUA | 0.046 |

Block 4 — technique: aptamer microarray, sandwich; molecule type: DNA with 2'F-ANA; sample: in vitro; tested at: 200 nM; together with: Cy3 exosite-II aptamer, 400 nM; direction: higher = stronger binding; oligonucleotide: GGTTGGTGTGGTTGG
Target: Prothrombin, mature alpha-thrombin (F2, Homo sapiens, UniProt P00734)
Notes: whole 15-mer aptamer, many near background
| Modification | mean fluorescence intensity [a.u.] |
| --- | --- |
| 2'F-ANA at 1 2 3 4 6 8 10 11 12 13 15 | 71.9 |
| 2'F-ANA at 1 2 5 7 8 13 14 15 | 45.3 |
| 2'F-ANA at 1 2 3 4 5 6 9 10 11 14 15 | 46.4 |
| 2'F-ANA at 2 3 6 9 10 13 15 | 262 |
| 2'F-ANA at 3 6 10 12 13 14 15 | 413 |
| 2'F-ANA at 2 3 5 6 7 15 | 90.9 |
| 2'F-ANA at 1 3 4 5 6 9 11 | 57.8 |
| 2'F-ANA at 4 7 8 9 10 12 13 15 | 88.7 |
| 2'F-ANA at 1 2 4 7 10 13 14 | 62.6 |
| 2'F-ANA at 3 4 5 8 9 10 11 12 13 15 | 82 |
| 2'F-ANA at 1 4 6 9 14 15 | 59.8 |
| 2'F-ANA at 1 4 9 10 13 14 15 | 43.9 |
| 2'F-ANA at 5 6 8 9 10 11 12 13 14 15 | 46.5 |
| 2'F-ANA at 1 2 5 6 7 8 12 | 115 |
| 2'F-ANA at 1 4 6 9 13 14 | 76.8 |
| 2'F-ANA at 2 3 4 6 7 8 10 12 13 14 15 | 162 |
| 2'F-ANA at 1 3 4 8 9 11 15 | 194 |
| 2'F-ANA at 1 2 6 9 10 14 15 | 45.7 |

Repeated from above (block 4):
| Modification | mean fluorescence intensity [a.u.] |
| --- | --- |
| 2'F-ANA at 1 2 3 4 5 6 9 10 11 14 15 | 46.4 |
| 2'F-ANA at 2 3 6 9 10 13 15 | 262 |
| 2'F-ANA at 1 2 4 7 10 13 14 | 62.6 |
| 2'F-ANA at 4 7 8 9 10 12 13 15 | 88.7 |
| 2'F-ANA at 3 4 5 8 9 10 11 12 13 15 | 82 |
| 2'F-ANA at 1 4 9 10 13 14 15 | 43.9 |
| 2'F-ANA at 2 3 4 6 7 8 10 12 13 14 15 | 162 |
| 2'F-ANA at 1 2 6 9 10 14 15 | 45.7 |
| 2'F-ANA at 1 2 5 6 7 8 12 | 115 |
